Results of several laboratories.
Each line is one published result; not all experiments were run side by side.
Organism: Staphylococcus aureus

N=C(N)NCCC[C@H](NC(=O)[C@H](CCCNC(=N)N)NC(=O)[C@H](CCCNC(=N)N)NC(=O)[C@@H](N)CCCNC(=N)N)C(=O)N[C@@H](Cc1c[nH]c2ccccc12)C(=O)N[C@@H](Cc1c[nH]c2ccccc12)C(=O)N[C@@H](Cc1c[nH]c2ccccc12)C(=O)N[C@@H](Cc1c[nH]c2ccccc12)C(=O)O has an MIC of 43.4 µg/mL (broth microdilution; MRSA ATCC 43300; 37 °C).
For NC(=O)c1c(F)ccc(OCc2nc3cc(Cl)cnc3s2)c1F, the MIC was 2 µg/mL (broth microdilution; ATCC 29213; 2% BSA added).
The MIC of CC[C@H](C)[C@@H]1NC(=O)[C@@H](CN)NC(=O)CNC(=O)[C@H](CC(=O)O)NC(=O)CNC(=O)[C@H](CC(=O)O)NC(=O)[C@H](CC(=O)O)NC(=O)[C@H]2CCCCN2C(=O)[C@@H](NC(=O)[C@H](CC(=O)O)NC(=O)/C=C/CCCCCCCCCC(C)C)CNC(=O)[C@@H]2CCCN2C1=O is reported as 8 µg/mL (MRSA USA300; 16 h, 37 °C, with: Ca2+ 10 mM).
The MIC of N=C(N)NCCC[C@H](NC(=O)[C@H](Cc1c[nH]c2ccccc12)NC(=O)[C@H](CCC(N)=O)NC(=O)[C@H](Cc1c[nH]c2ccccc12)NC(=O)[C@H](CCCNC(=N)N)NC(=O)[C@H](Cc1c[nH]c2ccccc12)NC(=O)[C@H](CCC(N)=O)NC(=O)[C@H](Cc1c[nH]c2ccccc12)NC(=O)[C@H](CCCNC(=N)N)NC(=O)CCCCCNC(=O)/C=C/c1ccc(O)c(O)c1)C(N)=O is reported as 28 µM (broth microdilution; ATCC 25923; 24 h, 37 °C).
The MIC of CCO[C@H]1[C@H](O)[C@@H](N)[C@@H](O[C@H]2[C@H](O[C@@H]3O[C@H](CO)[C@@H](O[C@H]4O[C@@H](CN)[C@@H](O)[C@H](O)[C@H]4N)[C@H]3O)[C@@H](O)[C@H](N)C[C@@H]2N)O[C@@H]1CO is reported as 8 µg/mL (microbial growth, broth dilution; MRSA; clinical isolate).
With NC(=O)c1c(F)ccc(OCc2nc3cc(Cl)cnc3s2)c1F the MIC was 1 µg/mL (microbial growth; ATCC43300; drug-resistant strain, clinical isolate).
For COc1ccc2c(c1CC=C(C)C)O[C@H]1c3cc4c(cc3OC[C@@]21O)OC(C)(C)C=C4, MIC read “inactive”.
The MIC of CC(C)C[C@@H]1NC(=O)[C@H](C)NC(=O)[C@H](NC(=O)[C@H](CO)NC(=O)[C@@H](CCCCN)NC(=O)[C@@H](CC(C)C)N(C)C(=O)[C@@H](N)Cc2ccccc2)[C@H](C)OC(=O)[C@H](CC(C)C)NC1=O is reported as greater than 32 µg/mL (MSSA ATCC 29213; TFA salt).
CCCCCCCCCCCCCC(=O)N[C@H](CCN)C(=O)N[C@@H]1C(=O)N[C@@H](CCN)C(=O)N[C@@H](CC(C)C)C(=O)N[C@@H](CCN)C(=O)N[C@H](Cc2ccccc2)C(=O)N[C@@H](CC(C)C)C(=O)N[C@@H](CCN)C(=O)N[C@H](CCN)C(=O)N[C@@H](C(C)C)C(=O)N[C@@H](CC(=O)O)C(=O)O[C@@H]1C has an MIC of 2 µg/mL (broth microdilution; BNCC 186335, azithromycin and penicillin resistant).
CC(C)CS[C@H]1[C@H](O)[C@@H](N)[C@@H](O[C@H]2[C@H](O[C@@H]3O[C@H](CO)[C@@H](O[C@H]4O[C@@H](CN)[C@@H](O)[C@H](O)[C@H]4N)[C@H]3O)[C@@H](O)[C@H](N)C[C@@H]2N)O[C@@H]1CO gave an MIC of 2 µg/mL (methicillin-resistant, AAC(6') ANT(4',4'') APH(3')).
With c1ccc(CN2CCOCCOCCN(CCCCCCCCCCCCN3CCOCCOCCN(CCCCCCCCCCCCN4CCOCCOCCN(Cc5ccccc5)CCOCCOCC4)CCOCCOCC3)CCOCCOCC2)cc1 the MIC was 0.5 µM (checkerboard, item: norfloxacin; 1199B; 500 nM, with: norfloxacin).
For CCCCc1ccc(N2C(=O)/C(=N\NC(=N)N)c3cc(C)ccc32)cc1, the MIC was 3 µg/mL (broth microdilution; BAA41 MRSA; 18 h, 37 °C).
COc1cc2c(=O)c(C(=O)NCCNCCO)cn(Cc3ccccc3)c2cc1OCc1cccc(Br)c1 gave an MIC of less than 0.25 µg/mL (ATCC 43300 MRSA; ≥80% growth inhibition).
CCCCCC/C=C\CCCCCCC[C@@H](O)Cc1cc(O)cc(O)c1 gave an MIC of 8 µg/mL (microbial growth, broth dilution; USA300; drug-resistant strain).
CC[C@H](C)[C@H](NC(=O)[C@H](CC(=O)O)NC(=O)[C@H](Cc1ccccc1)NC(=O)[C@H](CC(C)C)NC(=O)CN)C(=O)N[C@H](C(=O)N[C@@H](CCCCN)C(=O)N[C@@H](CCCCN)C(=O)N[C@H](C(=O)N[C@@H](CC(C)C)C(=O)N[C@@H](CCCCN)C(=O)N[C@@H](CC(C)C)C(=O)N[C@@H](CC(C)C)C(=O)N[C@@H](CCCCN)C(N)=O)C(C)C)C(C)C has an MIC of greater than 20 µM (ATCC 43300, CAMHB; 18 h, 37 °C).
With CC[C@H](C)[C@H](NC(=O)[C@H](CCCCN)NC(=O)[C@H](CCCCN)NC(=O)[C@H](Cc1c[nH]c2ccccc12)NC(=O)[C@H](CC(N)=O)NC(=O)[C@@H](NC(=O)COCCOCCOCCOCCOCCOCCOC(=O)NCCCCCCNC(=O)NCCCCCCNC(=O)Nc1nc(=O)cc(C)[nH]1)C(C)C)C(=O)N[C@@H](CC(C)C)C(=O)NCC(=O)N[C@@H](CCCCN)C(=O)N[C@H](C(=O)N[C@H](C(=O)N[C@@H](CCCCN)C(=O)N[C@H](C(=O)N[C@H](C(=O)N[C@@H](CCCCN)C(N)=O)C(C)C)C(C)C)[C@@H](C)CC)[C@@H](C)CC the MIC was 7.5 µM (MRSA AMC 201, RPMI medium; 24 h, 37 °C).
CC(C)[C@H](NC(=O)[C@H](CCCNC(=N)N)NC(=O)[C@H](CCCNC(=N)N)NC(=O)[C@@H](NC(=O)[C@H](C)NC(=O)[C@H](CC(N)=O)NC(=O)[C@H](CCCNC(=N)N)NC(=O)[C@@H](NC(=O)[C@H](CCCNC(=N)N)NC(=O)[C@H](CCCNC(=N)N)NC(=O)[C@@H](NC(=O)[C@@H](NC(=O)[C@H](CCCNC(=N)N)NC(=O)[C@H](CCCNC(=N)N)NC(=O)[C@H](Cc1c[nH]c2ccccc12)NC(=O)[C@H](Cc1c[nH]c2ccccc12)NC(=O)CN)[C@@H](C)O)C(C)C)C(C)C)C(C)C)C(=O)O gave an MIC of 256 µg/mL (bacterial growth; MRSA clinical isolate; 18 h).
CC[C@H](C)[C@H](N)C1=N[C@H](C(=O)N[C@@H](CC(C)C)C(=O)N[C@H](CCC(=O)O)C(=O)N[C@H](C(=O)N[C@H]2CCCCNC(=O)[C@H](CC(N)=O)NC(=O)[C@@H](CC(=O)O)NC(=O)[C@H](Cc3c[nH]cn3)NC(=O)[C@@H](Cc3ccc(-c4ccccc4)cc3)NC(=O)[C@H]([C@@H](C)CC)NC(=O)[C@@H](CCCN)NC2=O)[C@@H](C)CC)CS1 gave an MIC of 1 µg/mL (broth microdilution; ATCC 29213, LB medium; 18 h, 37 °C, with: ZnSO4 0.3 mM).
For NCCCC[C@@H]1NC(=O)[C@@H](Cc2c[nH]c3ccccc23)NC(=O)[C@H](Cc2c[nH]c3ccccc23)NC(=O)[C@@H](N)CSCc2ccc(cc2)CSC[C@@H](C(N)=O)NC(=O)[C@@H](Cc2c[nH]c3ccccc23)NC(=O)[C@H](Cc2c[nH]c3ccccc23)NC(=O)[C@@H](Cc2c[nH]c3ccccc23)NC(=O)[C@H](CCCCN)NC(=O)[C@@H](CCCCN)NC(=O)[C@H](CCCCN)NC(=O)[C@@H](CCCCN)NC1=O, the MIC was 32 µg/mL (COL MRSA).
For CC(=O)OCc1cc(-c2nc3ccccc3n(-c3ccc([N+](=O)[O-])cc3[N+](=O)[O-])c2=O)nn1-c1ccccc1, the MIC was 500 µg/mL (microbial growth; clinical isolate).
[Ag+].[S-]c1ccccn1.c1ccc(P(c2ccccc2)c2ccccc2)cc1.c1ccc(P(c2ccccc2)c2ccccc2)cc1 has an MIC of 50 µg/mL (agar dilution; methicillin-resistant; 24 h, 37 °C).
COc1ccc2ccc3c(c2c1)C=[N+]1C2CCCCC2[N+]2=Cc4c(OC)cccc4[O][Au-]21[O]3.F[P-](F)(F)(F)(F)F (centres unmarked) has an MIC of greater than 20 µM (bacterial growth, broth microdilution; vancomycin-intermediate; 24 h).
The MIC of CN(C)CCCNC(=O)[C@@H]1NC(=O)[C@@H]2Cc3ccc(cc3)Oc3cc4cc(c3O)-c3ccc5c(c[nH]c5c3)C[C@@H](NC(=O)C(NC(=O)CCCCCN)c3ccc(O)cc3)C(=O)N[C@H](c3ccc(O)cc3)C(=O)N[C@H]4C(=O)N[C@@H](C(=O)N2C)c2ccc(cc2)Oc2cc1ccc2O (some centres unmarked) is reported as 8 to 16 µg/mL (ATCC 33591 MRSA, Mueller-Hinton broth).
The MIC of Oc1ccccc1C1Nc2ccccc2C2=[O+][Cu-2]3([Cl])[O]c4ccccc4C=[N+]3N21 (centres unmarked) is reported as 8 µg/mL (broth microdilution; MRSA clinical isolate SA 3202; 24 h, 37 °C).
With CCCCc1ccc(-c2nc(C)c(C(C)=NNC(=N)N)s2)cc1 the MIC was 1.3 µg/mL (ATCC 43300 MRSA).
For COc1ccc2ccc3c(c2c1)C=[N+]1C2CCCCC2[N+]2=Cc4ccc(OCCN5CCCCC5)cc4[O][Au-]21[O]3.F[P-](F)(F)(F)(F)F (centres unmarked), the MIC was 20 µM (bacterial growth, broth microdilution; vancomycin-intermediate; 24 h).
For CC[C@H](C)[C@H](NC(=O)[C@H](CCCNC(=N)N)NC(=O)[C@H](CCCNC(=N)N)NC(=O)[C@H](CCCCN)NC(=O)[C@H](CC(N)=O)NC(=O)[C@H](CS)NC(=O)[C@H](Cc1ccc(O)cc1)NC(=O)CNC(=O)CNC(=O)[C@H](CCCNC(=N)N)NC(=O)[C@H](CCCCN)NC(=O)[C@H](CCCNC(=N)N)NC(=O)[C@H](CCCCN)NC(=O)[C@H](CC(C)C)NC(=O)[C@H](CC(C)C)NC(=O)[C@H](CS)NC(=O)[C@H](Cc1c[nH]cn1)NC(=O)[C@H](C)NC(=O)[C@H](C)NC(=O)[C@H](CS)NC(=O)[C@H](C)NC(=O)[C@H](C)NC(=O)[C@H](Cc1c[nH]cn1)NC(=O)[C@H](CC(N)=O)NC(=O)[C@@H](NC(=O)[C@H](CCCCN)NC(=O)[C@@H](NC(=O)CNC(=O)[C@H](CCCCN)NC(=O)[C@H](C)NC(=O)[C@H](CCC(=O)O)NC(=O)[C@H](C)NC(=O)[C@H](CO)NC(=O)[C@H](CC(C)C)NC(=O)[C@H](CC(C)C)NC(=O)[C@H](CC(=O)O)NC(=O)[C@H](CS)NC(=O)[C@@H](NC(=O)[C@@H](N)C(C)C)[C@@H](C)O)C(C)C)C(C)C)C(=O)N[C@@H](CS)C(=O)N[C@H](C(=O)N[C@@H](CS)C(=O)N[C@@H](CCCNC(=N)N)C(=O)N[C@@H](CC(N)=O)C(N)=O)C(C)C, the MIC was 13.2 µg/mL (ATCC 29213).
For CN[C@@H]1[C@H](O)[C@H](NC)[C@H]2O[C@]3(O)[C@H](O[C@@H]2[C@H]1O)O[C@H](C)C[C@@]3(O)CNCc1ccc(OC(F)(F)F)cc1, the MIC was 100 to 200 µg/mL (MRSA NRS70).
With CC[C@H](C)[C@H](NC(=O)[C@H](CCCN)NC(=O)[C@H](CC(N)=O)NC(=O)[C@H](Cc1c[nH]c2ccccc12)NC(=O)[C@H](Cc1ccccc1)NC(=O)[C@H](CCCN)NC(=O)[C@H](CCCCNC(=N)N)NC(=O)[C@H](CC(C)C)NC(=O)[C@H](Cc1c[nH]c2ccccc12)NC(=O)[C@H](CCCN)NC(=O)[C@H](CCCCNC(=N)N)NC(=O)[C@H](CC(C)C)NC(=O)CNC(C)=O)C(=O)N[C@@H](CCCN)C(=O)N[C@@H](CCCCNC(=N)N)C(N)=O the MIC was 3.13 µM (12 h, with: plasma pretreatment).

For quick reference, copied from above:
With c1ccc(CN2CCOCCOCCN(CCCCCCCCCCCCN3CCOCCOCCN(CCCCCCCCCCCCN4CCOCCOCCN(Cc5ccccc5)CCOCCOCC4)CCOCCOCC3)CCOCCOCC2)cc1 the MIC was 0.5 µM (checkerboard, item: norfloxacin; 1199B; 500 nM, with: norfloxacin).
For CCCCc1ccc(N2C(=O)/C(=N\NC(=N)N)c3cc(C)ccc32)cc1, the MIC was 3 µg/mL (broth microdilution; BAA41 MRSA; 18 h, 37 °C).
COc1cc2c(=O)c(C(=O)NCCNCCO)cn(Cc3ccccc3)c2cc1OCc1cccc(Br)c1 gave an MIC of less than 0.25 µg/mL (ATCC 43300 MRSA; ≥80% growth inhibition).
CCCCCC/C=C\CCCCCCC[C@@H](O)Cc1cc(O)cc(O)c1 gave an MIC of 8 µg/mL (microbial growth, broth dilution; USA300; drug-resistant strain).
